Results from different studies.
Each numbered part is a random draw from the data of one study; scales do not carry over between parts. Substitutions count along the parent as printed.

Sample 1 — technique: RNAcompete; form: RNA; matrix: in vitro; tested at: 20 nM; setting: 7-mer, probes averaged, single round; reference: mean of 7-mers; reading: higher = stronger binding
Target: PABPC1L2, full length, GST fusion (mouse, UniProt A0ABA7IW68)
Target sequence (chain): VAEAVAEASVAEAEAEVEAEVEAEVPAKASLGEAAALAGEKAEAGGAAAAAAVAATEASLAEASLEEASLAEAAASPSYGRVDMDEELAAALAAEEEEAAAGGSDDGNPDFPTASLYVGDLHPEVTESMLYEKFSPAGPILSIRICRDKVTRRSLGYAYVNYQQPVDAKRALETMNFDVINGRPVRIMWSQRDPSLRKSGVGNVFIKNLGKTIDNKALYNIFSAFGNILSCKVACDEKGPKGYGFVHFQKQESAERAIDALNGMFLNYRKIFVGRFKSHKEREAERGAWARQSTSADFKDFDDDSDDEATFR
Sequence | 7-mer Z-score
UUAAAUU | 0.483
GCGGUCC | -0.195
AGAAAUA | 2.73
ACUCACC | -0.0718
AGGACUA | 0.191
GUCAACU | -0.293
AGACGUA | -0.224
GAAAUUA | 0.749

Sample 2 — observed: peptide-MHC binding; form: peptide; tested at: concentration not given
Target: HLA class I histocompatibility antigen, A alpha chain, allele A*25:01 (Homo sapiens, UniProt P04439)
Molecule | binding
MVFGRFSFA | inactive
NPAACSYMV | inactive
FELLHFISS | inactive
FAEGVIAFL | inactive
EAYCALLCK | inactive
YRRKLTNPA | inactive

Sample 3 — technique: protein binding microarray; form: double-stranded DNA, one strand shown; matrix: in vitro; tested at: not given; reference: not given; reading: higher = stronger binding
Target: Histone acetyltransferase KAT6A, winged helix 1, GST fusion (KAT6A, Homo sapiens, UniProt Q92794, residues 1-85)
Setting: 8-mer, flanks averaged, mean of 2 arrays, mostly near background
Target sequence (chain): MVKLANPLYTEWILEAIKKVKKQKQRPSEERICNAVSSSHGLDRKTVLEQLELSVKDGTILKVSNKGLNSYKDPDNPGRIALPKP
Sequence | E-score
GAAACCTA | -0.0417
AACTGAAA | -0.138
CTGAATTA | -0.06
CGTCTGCC | 0.134
TCTTACAA | -0.12
CTCGTATC | -0.169
CTCAATCC | -0.0458
AAAATCGG | 0.0845

Sample 4 — target: CCNB1, cyclin fold, Cln2 fusion (human); technique: yeast growth competition, sequencing; matrix: yeast; setting: weak parent motif; reference: not given; reading: higher = stronger binding; starting sequence: viral docking peptide; KKVKRRLFETREL
Change | normalised enrichment score
KKVKARAFETREL [R5A L7A] | 0.482
KKVKARLFETREL [R5A] | 0.623
KKVKRRAFETREL [L7A] | 0.428
KKVKRRLAETREL [F8A] | 0.561
KKVKRRLFEAREL [T10A] | 0.763
KKVKRRLFATREL [E9A] | 0.362
KKVKRRLLETREL [F8L] | 0.374
KAVKRRLFETREL [K2A] | 1.31
KKVARRLFETREL [K4A] | -0.207

A few entries again (sample 3):
Sequence | E-score
AACTGAAA | -0.138
AAAATCGG | 0.0845
GAAACCTA | -0.0417
TCTTACAA | -0.12
